Measured values pooled from the literature.
Every numbered part comes from another study and shows a few of its results, in no order.

Set 1 — technique: RNA Bind-n-Seq; form: RNA; sample: in vitro; tested at: 200 nM; setting: whole 134-nt RNA, ends assumed; with: 150 mM KCl; reference: input library; direction: higher = stronger binding
Target: Fragile X messenger ribonucleoprotein 1, C-terminal low-complexity region (Fmr1, Mus musculus, UniProt P35922)
Oligonucleotide	log2 enrichment
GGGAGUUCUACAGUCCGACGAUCUCAAGUCCUGUGCUACACAUCGUAUGUACCGAAUCGGCCCCGGCCCCGGCCCCGGAAAGUAUUAUGUUACGCCGUUCGGAUCUGCACUUCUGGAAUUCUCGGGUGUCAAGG	-0.326
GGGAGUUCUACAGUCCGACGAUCGUCCUGUGCUACACAUCGUAUGUACCGAAUCGGGGCCCCGGGGCCCCGGGGCCCCGGGAAAGUAUUAUGUUACGCCGUUCGGAUCUGCACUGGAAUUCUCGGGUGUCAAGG	-0.559
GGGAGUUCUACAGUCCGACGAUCCUCAAGUCCUGUGCUACACAUCGUAUGUACCGAAUCGGGAAGGAAGGGGAAGGGAAAGUAUUAUGUUACGCCGUUCGGAUCUGCACUUCCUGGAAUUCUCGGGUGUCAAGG	0.963
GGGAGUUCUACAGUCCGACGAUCAGUCCUGUGCUACACAUCGUAUGUACCGAAUCGGGUUUUUUUGGGAGGGUUUUUGGGAAAGUAUUAUGUUACGCCGUUCGGAUCUGCACUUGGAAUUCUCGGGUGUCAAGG	0.438
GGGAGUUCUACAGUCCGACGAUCGUCCUGUGCUACACAUCGUAUGUACCGAAUCGGGGUUUGGGGAGGGGUUUUUUUGGGGAAAGUAUUAUGUUACGCCGUUCGGAUCUGCACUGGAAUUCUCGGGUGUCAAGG	0.573
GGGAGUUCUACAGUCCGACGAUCAAGUCCUGUGCUACACAUCGUAUGUACCGAAUCGGGUUUUUGGGAAAGGGUUUGGGAAAGUAUUAUGUUACGCCGUUCGGAUCUGCACUUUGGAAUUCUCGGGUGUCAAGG	0.472
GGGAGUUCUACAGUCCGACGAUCCUCAAGUCCUGUGCUACACAUCGUAUGUACCGAAUCGGGUUUGGGAGGGUGGGAAAGUAUUAUGUUACGCCGUUCGGAUCUGCACUUCCAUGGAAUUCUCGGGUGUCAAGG	1.32
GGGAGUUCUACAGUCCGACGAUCAAGUCCUGUGCUACACAUCGUAUGUACCGAAUCGGGGUUUGGGUUUGGGUUUGGGGAAAGUAUUAUGUUACGCCGUUCGGAUCUGCACUUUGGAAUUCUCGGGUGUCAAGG	0.981
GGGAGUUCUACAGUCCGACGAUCUCAAGUCCUGUGCUACACAUCGUAUGUACCGAAUCGGUUUGGAAAAAAAGGUGGAAAGUAUUAUGUUACGCCGUUCGGAUCUGCACUUCCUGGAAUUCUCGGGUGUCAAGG	-0.297
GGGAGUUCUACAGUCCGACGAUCUGGCCUUAUCACUCCUGGAGGCUUUUCAUCAGUGCCUGCUGGAAUGGAGACCCCUGAACUCAUUGAGCUGAGGAAGAAGAAGAUUGAGGAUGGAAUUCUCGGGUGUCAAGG	-1.64
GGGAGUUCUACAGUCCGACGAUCGCAGGAAGUAAAAACAAAUGGAAAUGCUUCGGAUAGUGGCAGGGGUGGGGGUUGCUAUGGAAAGGGUGGGAUGGGAGUGGGUAAAGAGUUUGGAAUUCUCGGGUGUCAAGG	0.22
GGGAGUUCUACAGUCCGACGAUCUCCUGUGCUACACAUCGUAUGUACCGAAUCGGAAAAAAAGGUUUUUUUGGUUUUUUUGGAAAGUAUUAUGUUACGCCGUUCGGAUCUGCAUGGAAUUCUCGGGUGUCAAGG	-0.741
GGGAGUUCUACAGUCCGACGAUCUCAAGUCCUGUGCUACACAUCGUAUGUACCGAAUCGGAAAAAGGAAAGGAAAGGAAAGUAUUAUGUUACGCCGUUCGGAUCUGCACUUCCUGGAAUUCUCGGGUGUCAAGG	-0.968
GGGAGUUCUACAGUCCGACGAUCCCUCAAGUCCUGUGCUACACAUCGUAUGUACCGAAUCGGGGAGGAGGAGGGGAAAGUAUUAUGUUACGCCGUUCGGAUCUGCACUUCCAGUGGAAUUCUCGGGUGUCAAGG	0.513

Set 2 — technique: protein binding microarray; form: double-stranded DNA, one strand shown; sample: in vitro; tested at: not given; reference: not given; direction: higher = stronger binding
Target: Histone acetyltransferase KAT6A, winged helix 1, GST fusion (KAT6A, Homo sapiens, UniProt Q92794, residues 1-85)
Setting: 8-mer, flanks averaged, mean of 2 arrays, mostly near background
Construct (chain): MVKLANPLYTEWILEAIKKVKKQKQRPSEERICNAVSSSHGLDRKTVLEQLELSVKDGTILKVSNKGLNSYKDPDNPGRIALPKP
Oligonucleotide	E-score
ATAGAGAC	-0.178
AAAGGTTA	-0.0846
CGCGAACA	0.0902
GTCATCTA	-0.046
GTTTTTGA	-0.192
AAACATGC	0.0745
AATATCGA	-0.19
ACGTATCG	0.0791
ACGCCAGT	-0.0594
GCTATGAC	0.0564
ACCCTGCC	-0.0948
ATTACGCC	0.067
ACCAACAG	-0.0407
GGCCAACC	0.023
CCCCTACA	-0.154
CTGCTAGC	-0.061
CACATACA	-0.196
GTGATACA	-0.0823
ATATGGTG	-0.0967
TACCCGCA	0.291
AAAGTTGG	-0.347
AACACTAG	-0.00464
AAGAGTTC	-0.194
AGCAGTAC	-0.00292
GAAAGCCA	-0.19

Set 3 — technique: RNA Bind-n-Seq; form: RNA; sample: in vitro; tested at: 100 nM; reference: input RNA pool; direction: higher = stronger binding
Target: RING finger protein unkempt homolog, zinc fingers 1-6, SBP tag (UNK, Homo sapiens, UniProt Q9C0B0, residues 30-357)
Sequence of UniProt Q9C0B0 (30-357, looked up): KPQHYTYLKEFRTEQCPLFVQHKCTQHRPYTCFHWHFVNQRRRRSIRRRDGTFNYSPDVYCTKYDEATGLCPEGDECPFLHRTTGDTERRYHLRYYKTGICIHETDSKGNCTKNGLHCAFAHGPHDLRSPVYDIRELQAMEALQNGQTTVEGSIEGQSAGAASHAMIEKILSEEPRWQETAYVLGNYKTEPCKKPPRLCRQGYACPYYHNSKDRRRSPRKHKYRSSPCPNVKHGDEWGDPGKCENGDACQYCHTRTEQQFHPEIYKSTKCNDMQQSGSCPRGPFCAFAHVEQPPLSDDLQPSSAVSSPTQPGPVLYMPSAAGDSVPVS
Setting: RNA with constant flanks, vertebrate orthologous sites, ends assumed
Oligonucleotide	bound/input enrichment
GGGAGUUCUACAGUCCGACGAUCUCCCAGCACUCUGAUAAAAAGUGUGGACUGGCUGCUCGUCUUUUCCUUAUUCUUUCUAAUUAGCUUUAUUAUGUACGCCACCAUUCGAACUGAGAGCAUCCGGUGGCUAAUUCCAGGACACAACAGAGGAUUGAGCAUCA	3.57 ratio
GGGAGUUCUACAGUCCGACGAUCUUACAGUCCUCUACUUAAACUGGUAUUUUCAAACAAUAGGAAGCUUUUUUUUUUUUACAGUUUAGUAUCUUGUUUCUACAUGGAAGACUAAACAUGCUUAUAGCUAAAUGUGGUCUUUGCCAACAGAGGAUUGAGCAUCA	0.769 ratio
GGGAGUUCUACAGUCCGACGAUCACGCUUUGAUAUUAAAUUUGACAUAAAAAGCAGCUGAUUGUAAGCACAACUCUUUCCUCCUAGCCAUUUAAAAAGGUAAAAAACAAAAAAGAAAACCUACUAGUCUUGAACAAACUGUCACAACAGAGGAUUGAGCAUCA	0.61 ratio
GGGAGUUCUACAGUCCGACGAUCUACUGUUGUUAAGCACUGUUCCAGACCGUGUCUGACUUUAGUGUAACCUAGGAGAUUUUAUAGUUUUAUUUUAAUGGAAUCCUGCCUGACGCAGAGCAGUGGGGAGAGCAGUGUCUUCUGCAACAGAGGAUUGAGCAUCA	1.96 ratio
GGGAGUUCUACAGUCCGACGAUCCGGGCCCUACAUAUAAAAUGCCUAUCAAAUGUUGACUGUGAACCGAAACUUCACUUACAUAGGUCUGUUAAGUUACACAGAAGUUUCCUUAAGCCUGAGCCGCGCUGCCCUGUCUGAAGUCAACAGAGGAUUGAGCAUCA	0.294 ratio
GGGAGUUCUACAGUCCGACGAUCAUUGACAAUGAAAAGAGCCAAGCAGUAGCAUUUUGUUUUUUUUAUAAAUGUAAAAAUUAGAUUCACUUUGUUUCCUAUUCAGUUUUAAAAAUAAAAAUACCUCAGUGCUGUGUUUCCCAGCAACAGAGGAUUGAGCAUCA	0.555 ratio
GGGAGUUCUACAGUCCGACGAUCCUCCUAGCGUCAUACCAGCAUCUUCGCUAUCAGACGUGCACAGCUUACAAAGGAACAGUCUAGUGGUAUUGGUUAUUUUCAUUUCAAAACCUACUUUUUUUUUCCCAAGGCUGAAAAAAACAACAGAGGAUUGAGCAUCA	0.54 ratio
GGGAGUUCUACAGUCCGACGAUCAUCUCUCACUUCAUAGGUCCAACAAUUGCUCUGAGUUUUGAAAUAUUUUGCAGUUUAAAUGAGGUCUGCUCCAGCAGACAUUCAUGCAGUGCCCCAUAGUCUGAAUGCUUUCUGAAGUGCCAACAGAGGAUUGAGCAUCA	0.848 ratio
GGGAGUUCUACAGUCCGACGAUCAAAUAUACUUCAUGCCAUGGACUCCGUAUCGCACUGAUACUUUGAUAGAAUAUGCUUCUUUGGAGGACUUCCAAAAUGGACGCCAGCAGACAACGUAUAAACUCCCAAAUCGAGUGGAUGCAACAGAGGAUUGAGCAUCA	0.966 ratio
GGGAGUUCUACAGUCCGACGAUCUAAUUCAAUGGUUGAGGGUUCAGAACUCAAAAAGGUUCGCUCCAACUCUAGAAUUUAUCAUAGGUACUUUUUACUGGAUGCCGACAUGCAGAGCCUAAGGUGGGAGCCAUCAAAGAAGGACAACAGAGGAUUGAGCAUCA	0.298 ratio
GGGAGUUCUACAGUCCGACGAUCUGUUUUCUUAUUUUAGGUAUCACUGCCCAAUGCCUAAGAUCUUUUACGUCCAGCUGACUGUAGGAAACAAUGAAUUUUUCGGGGAAGGAAAGACCCGACAAGCUGCUAGACACAAUGCUGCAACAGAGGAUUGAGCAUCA	1.09 ratio

Set 4 — technique: RNA Bind-n-Seq; form: RNA; sample: in vitro; tested at: 365 nM; reference: no-protein control; direction: higher = stronger binding
Target: RNA binding protein fox-1 homolog 2, RRM domain, GST-SBP tag (RBFOX2, Homo sapiens, UniProt O43251-10, residues 100-194)
Setting: natural RNA segment, single round, ends assumed
Construct (chain): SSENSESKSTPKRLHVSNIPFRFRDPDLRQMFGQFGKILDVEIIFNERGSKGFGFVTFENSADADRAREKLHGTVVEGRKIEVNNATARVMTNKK
Oligonucleotide	RBNS enrichment (R)
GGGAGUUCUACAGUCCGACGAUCACAAGACCCUUGGGAGUUUUAAUUCUGUUUUGUACUUGCCCUGUGGGGCCUCCACUGCUUUUCUAUGGGAGACACUCUUAAUUUAACAGAUGAGAAUAUUUUGAAACUCUUGGAAUUCUCGGGUGCCAA	0.763
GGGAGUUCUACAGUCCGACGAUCUUGUAAGGGGGUGGGUGGGACAGUAAAUUUGUAUUGUCUCGAUGUACAGUUUAACGGGGAUAGAGGGGGAAUAAUGUCCAUACCAUUGUGUGUGGAGGAUUUACAGCUAAUGGAAUUCUCGGGUGCCAA	0.566
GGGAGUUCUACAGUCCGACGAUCAGGCCACUGGCCCCGCAGCCCUUGGGAGGCCCCCGUGGAUGUGGCCCUGUGUGGGACCACACUGUCAUCUCGCUGCUGGCAGAAAAGCCUGAUCCCAGGAGGCCCUGCAGUGGAAUUCUCGGGUGCCAA	0.646
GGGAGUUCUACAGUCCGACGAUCAAGAAACAGUGGAGAGUAGCCACUUCUGGUUCUAGCACUUCUCUUUUGUUAAGAUAGGGUUUGGAUUUAGUAUGAAGCUUUGGCUAAAACCCUUGGGUUUGCCUUAGAACUGGAAUUCUCGGGUGCCAA	0.374
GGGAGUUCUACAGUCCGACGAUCGAGAAAACUAACACAGCAGUGGCAAUGCUGGGAAUGGCCAACAGGCUUGGAAUUCAACUCAGUUUAGCACCAAAGCCAGUGCUAUUAAGACCUGAAGUUCAACAGUGGAUUGGAAUUCUCGGGUGCCAA	0.423
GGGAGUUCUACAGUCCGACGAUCCACUGGGUUGCAGGGGAUUGAAGCCCUCCAAAAGCACUUACGGAUUCUGGUGGGGUGUGUUCCAACUGCCCCCAACUUUGUGGAUGUCUUCCUUGGAGGGGGGAGCCAUAUGGAAUUCUCGGGUGCCAA	0.268
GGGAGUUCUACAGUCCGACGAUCUUGCUUCUAUUGUUUGGGCAUUGUGGAUAAUGUACAGAUUUAAAAACAAAUCUUGUUGCUGAUUUGUCCAUUUCUUUCCCUGCACUUUGUUACAUCUGGGAUACAGUCUAUGGAAUUCUCGGGUGCCAA	1.78
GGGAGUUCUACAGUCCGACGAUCUUGAUGCUAAGCCCGGCAGCCUGUGUUUCAUCUACAGGAUGCACAACAUAAAAGAAAAGAUCUGAUUCCCGCAGGUUCUCUUCUGACCUACACACACACACACUAAAAUAUGGAAUUCUCGGGUGCCAA	0.792
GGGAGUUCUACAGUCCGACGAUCUUUGUGUGGCUUCUGGCCUAGCUUUUCAGAUGAGCCGCCUGGAUUUUUACCUGGCCUGUUCUGAUAAAGAGGCAUUUAUUAGCCAAGCAACCAUAAGACUCUAGUCAAAAUGGAAUUCUCGGGUGCCAA	0.292
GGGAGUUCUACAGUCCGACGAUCACACACUUUCUCAUGACUUUUAAGAACUGUAGUAAUGUGGCUUAGGAAAUAUAAUGGCCUAAUUGUUUUCAAAAUGUAAGUUCCUGUGAAGAAUUUUGUUUAUAUUGGGUUGGAAUUCUCGGGUGCCAA	0.684
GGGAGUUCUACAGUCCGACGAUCAUCCAGAAGAGUAAGAAGAGUAAAUUGUUUCCAUUAUUUUAUCUAAAUAGCAUAAGCAUAUGCUUUUAACUCAUCAUAUUUUUAGUAGUGCUUUUUAGUUUUGUAUAUCAUGGAAUUCUCGGGUGCCAA	0.974
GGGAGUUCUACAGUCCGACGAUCAUUUUUAUUCAUGUGAAGUGUAUAUGAUUCUCUUGAGAUAAGGUUUUAAGCUAAAAUGUUACUCCCUGUUUUAGUUUCUGAACUCUGACAGAUUGACAGGGACUUUGCUGUGGAAUUCUCGGGUGCCAA	0.675
